Results from different studies.
“And” joins repeats or separate records; there may be more than shown. ± marks the error that the study gave.
UniProt A5GZW8, sequence (whole entry, looked up): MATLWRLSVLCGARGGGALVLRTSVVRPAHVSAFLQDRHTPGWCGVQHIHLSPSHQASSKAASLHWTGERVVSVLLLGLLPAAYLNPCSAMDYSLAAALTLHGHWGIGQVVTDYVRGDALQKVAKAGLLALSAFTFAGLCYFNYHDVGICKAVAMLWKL
UniProt D0VWV4, sequence (whole entry, looked up): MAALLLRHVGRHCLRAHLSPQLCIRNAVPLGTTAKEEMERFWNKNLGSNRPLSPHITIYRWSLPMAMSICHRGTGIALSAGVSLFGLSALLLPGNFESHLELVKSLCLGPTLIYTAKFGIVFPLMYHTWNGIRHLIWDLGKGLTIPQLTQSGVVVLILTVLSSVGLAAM
UniProt Q007T0, sequence (whole entry, looked up): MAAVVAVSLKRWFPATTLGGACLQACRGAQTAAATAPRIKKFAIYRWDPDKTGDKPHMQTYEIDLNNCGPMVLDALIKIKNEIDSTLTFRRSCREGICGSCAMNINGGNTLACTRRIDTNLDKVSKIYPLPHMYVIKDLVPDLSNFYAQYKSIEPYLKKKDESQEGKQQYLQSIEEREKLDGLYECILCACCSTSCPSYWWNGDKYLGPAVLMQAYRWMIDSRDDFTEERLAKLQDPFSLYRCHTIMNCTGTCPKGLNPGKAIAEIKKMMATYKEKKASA
UniProt Q8R2Y0, sequence (whole entry, looked up): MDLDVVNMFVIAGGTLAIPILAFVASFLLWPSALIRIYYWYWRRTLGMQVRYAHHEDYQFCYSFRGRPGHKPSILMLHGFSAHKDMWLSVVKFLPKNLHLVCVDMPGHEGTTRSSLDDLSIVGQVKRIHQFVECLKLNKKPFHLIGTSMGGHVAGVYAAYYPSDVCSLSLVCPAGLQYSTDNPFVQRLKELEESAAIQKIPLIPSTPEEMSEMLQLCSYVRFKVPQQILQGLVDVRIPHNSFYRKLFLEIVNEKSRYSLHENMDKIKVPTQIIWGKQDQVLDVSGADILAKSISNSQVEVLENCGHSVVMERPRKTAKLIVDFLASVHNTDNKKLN
UniProt Q4JIM5, sequence (whole entry, looked up): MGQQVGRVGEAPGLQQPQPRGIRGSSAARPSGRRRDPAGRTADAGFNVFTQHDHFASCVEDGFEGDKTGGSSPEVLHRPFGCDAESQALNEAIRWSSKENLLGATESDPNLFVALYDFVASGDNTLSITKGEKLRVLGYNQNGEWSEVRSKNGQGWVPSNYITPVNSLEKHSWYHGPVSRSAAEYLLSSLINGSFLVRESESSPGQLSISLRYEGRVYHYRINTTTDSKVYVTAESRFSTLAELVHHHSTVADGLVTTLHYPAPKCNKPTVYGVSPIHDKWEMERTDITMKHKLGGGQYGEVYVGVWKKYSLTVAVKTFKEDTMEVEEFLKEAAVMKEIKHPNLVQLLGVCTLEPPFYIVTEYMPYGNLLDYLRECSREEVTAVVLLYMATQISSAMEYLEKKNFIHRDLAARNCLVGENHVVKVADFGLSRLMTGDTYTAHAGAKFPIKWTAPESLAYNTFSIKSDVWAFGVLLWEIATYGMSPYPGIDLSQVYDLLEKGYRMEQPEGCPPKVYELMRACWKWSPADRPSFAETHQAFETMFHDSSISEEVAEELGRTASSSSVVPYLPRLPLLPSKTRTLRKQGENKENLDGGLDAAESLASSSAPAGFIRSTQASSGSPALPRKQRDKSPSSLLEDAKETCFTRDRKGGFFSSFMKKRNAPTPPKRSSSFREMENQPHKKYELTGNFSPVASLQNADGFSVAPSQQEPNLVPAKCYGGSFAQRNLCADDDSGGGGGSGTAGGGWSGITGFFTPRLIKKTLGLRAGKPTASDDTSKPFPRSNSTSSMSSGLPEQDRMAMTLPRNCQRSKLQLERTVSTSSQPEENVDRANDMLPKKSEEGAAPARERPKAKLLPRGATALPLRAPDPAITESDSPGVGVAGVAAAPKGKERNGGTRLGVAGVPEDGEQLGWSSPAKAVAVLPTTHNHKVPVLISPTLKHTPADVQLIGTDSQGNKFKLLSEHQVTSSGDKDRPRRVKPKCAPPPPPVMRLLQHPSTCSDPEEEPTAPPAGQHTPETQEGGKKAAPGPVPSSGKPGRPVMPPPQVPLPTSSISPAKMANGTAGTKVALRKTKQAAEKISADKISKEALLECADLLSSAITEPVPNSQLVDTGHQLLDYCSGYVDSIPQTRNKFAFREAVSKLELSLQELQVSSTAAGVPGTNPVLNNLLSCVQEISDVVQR
UniProt Q13639, sequence (whole entry, looked up): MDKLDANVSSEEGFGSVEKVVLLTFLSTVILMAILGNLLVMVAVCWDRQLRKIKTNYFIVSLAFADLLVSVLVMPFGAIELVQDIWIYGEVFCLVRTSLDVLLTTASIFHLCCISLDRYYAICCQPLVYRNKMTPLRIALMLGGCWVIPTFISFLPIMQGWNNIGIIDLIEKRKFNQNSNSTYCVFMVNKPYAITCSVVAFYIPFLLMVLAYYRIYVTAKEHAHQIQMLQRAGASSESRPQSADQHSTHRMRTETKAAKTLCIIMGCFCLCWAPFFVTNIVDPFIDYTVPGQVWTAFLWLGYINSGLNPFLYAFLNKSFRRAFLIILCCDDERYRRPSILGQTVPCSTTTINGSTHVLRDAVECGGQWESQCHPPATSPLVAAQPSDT
UniProt P06241, sequence (whole entry, looked up): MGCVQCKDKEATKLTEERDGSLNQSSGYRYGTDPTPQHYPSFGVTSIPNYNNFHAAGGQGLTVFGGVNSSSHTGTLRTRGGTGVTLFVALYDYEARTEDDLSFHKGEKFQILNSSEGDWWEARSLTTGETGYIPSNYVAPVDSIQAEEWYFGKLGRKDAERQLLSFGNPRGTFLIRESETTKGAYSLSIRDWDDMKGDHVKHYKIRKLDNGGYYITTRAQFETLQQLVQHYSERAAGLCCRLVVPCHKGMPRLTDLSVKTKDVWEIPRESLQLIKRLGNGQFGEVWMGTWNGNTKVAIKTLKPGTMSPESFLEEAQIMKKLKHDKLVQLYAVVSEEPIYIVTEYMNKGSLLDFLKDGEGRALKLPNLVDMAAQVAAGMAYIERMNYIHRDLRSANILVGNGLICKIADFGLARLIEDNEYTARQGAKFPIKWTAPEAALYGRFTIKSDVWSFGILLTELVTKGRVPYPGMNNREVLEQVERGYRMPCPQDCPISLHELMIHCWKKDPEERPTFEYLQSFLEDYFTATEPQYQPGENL
UniProt P36897, sequence (whole entry, looked up): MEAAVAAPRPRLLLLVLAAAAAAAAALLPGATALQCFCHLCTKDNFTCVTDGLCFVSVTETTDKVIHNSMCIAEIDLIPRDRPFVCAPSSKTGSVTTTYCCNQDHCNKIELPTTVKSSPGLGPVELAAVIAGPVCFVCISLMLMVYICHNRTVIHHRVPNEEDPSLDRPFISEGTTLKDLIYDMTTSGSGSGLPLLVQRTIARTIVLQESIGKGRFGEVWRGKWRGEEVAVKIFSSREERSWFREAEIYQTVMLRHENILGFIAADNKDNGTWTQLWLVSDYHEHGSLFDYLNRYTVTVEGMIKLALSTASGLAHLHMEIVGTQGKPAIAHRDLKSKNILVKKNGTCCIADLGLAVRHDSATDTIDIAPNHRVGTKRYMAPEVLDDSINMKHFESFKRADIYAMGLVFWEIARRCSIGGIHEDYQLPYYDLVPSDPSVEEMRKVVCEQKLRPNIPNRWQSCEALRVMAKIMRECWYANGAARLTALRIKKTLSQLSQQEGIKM
UniProt Q15208, sequence (whole entry, looked up): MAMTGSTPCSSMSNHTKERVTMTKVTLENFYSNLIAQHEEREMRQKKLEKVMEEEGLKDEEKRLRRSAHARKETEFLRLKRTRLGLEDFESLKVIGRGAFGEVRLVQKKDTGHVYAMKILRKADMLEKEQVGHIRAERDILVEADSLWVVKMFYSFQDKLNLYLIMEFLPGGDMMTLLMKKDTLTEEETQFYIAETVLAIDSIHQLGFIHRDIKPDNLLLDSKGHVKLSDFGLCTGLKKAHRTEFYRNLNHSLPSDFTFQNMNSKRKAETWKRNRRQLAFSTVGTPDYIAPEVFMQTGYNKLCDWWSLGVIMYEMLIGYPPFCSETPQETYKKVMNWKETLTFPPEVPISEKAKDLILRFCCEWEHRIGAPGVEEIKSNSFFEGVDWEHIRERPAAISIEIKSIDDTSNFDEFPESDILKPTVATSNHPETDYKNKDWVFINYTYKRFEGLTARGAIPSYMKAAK
UniProt P13346, sequence (whole entry, unmodified, looked up): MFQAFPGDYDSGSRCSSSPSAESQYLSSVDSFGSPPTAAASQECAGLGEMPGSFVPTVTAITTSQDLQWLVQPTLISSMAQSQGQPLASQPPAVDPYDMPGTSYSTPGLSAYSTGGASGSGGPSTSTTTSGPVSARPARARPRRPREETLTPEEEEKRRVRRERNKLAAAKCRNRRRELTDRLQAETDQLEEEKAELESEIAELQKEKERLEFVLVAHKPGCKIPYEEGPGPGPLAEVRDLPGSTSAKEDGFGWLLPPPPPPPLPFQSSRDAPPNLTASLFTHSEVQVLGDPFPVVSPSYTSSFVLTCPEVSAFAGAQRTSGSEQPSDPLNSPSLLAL
UniProt Q8R4U2, sequence (whole entry, looked up): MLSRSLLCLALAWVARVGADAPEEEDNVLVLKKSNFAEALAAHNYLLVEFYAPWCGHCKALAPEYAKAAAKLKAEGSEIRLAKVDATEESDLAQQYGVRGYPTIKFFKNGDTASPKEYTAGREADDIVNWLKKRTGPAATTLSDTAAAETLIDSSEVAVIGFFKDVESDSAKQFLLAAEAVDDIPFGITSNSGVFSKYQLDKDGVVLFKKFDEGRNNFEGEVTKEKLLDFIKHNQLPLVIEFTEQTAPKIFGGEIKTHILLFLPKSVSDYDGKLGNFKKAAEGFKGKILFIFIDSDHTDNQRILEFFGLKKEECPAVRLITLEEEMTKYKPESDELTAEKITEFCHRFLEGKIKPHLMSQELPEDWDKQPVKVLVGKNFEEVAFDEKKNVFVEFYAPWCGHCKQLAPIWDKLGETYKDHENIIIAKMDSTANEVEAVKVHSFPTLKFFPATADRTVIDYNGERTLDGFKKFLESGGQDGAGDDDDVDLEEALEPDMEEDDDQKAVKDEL

C[C@@H](Cc1ccsc1)NC(=O)NC[C@H](Cc1ccc(O)cc1)N(C)C  Emax (Mu-type opioid receptor, with GoA (OPRM1, Homo sapiens, UniProt P35372); receptor activation, agonist): 80 ± 7%
CN(C)CCCSC(=S)N1CCN(C(=O)/C=C/c2coc3ccccc3c2=O)CC1  MST response (Nucleoprotein (N, Tomato spotted wilt virus, UniProt P25999, R94A/Y184A); binding, microscale thermophoresis; 500 µM; dose series): 0.864 a.u.
CS(C)(=O)=Nc1ccc(-c2ccc(-c3nc4cc(O[C@@H]5CO[C@H]6[C@@H]5OC[C@H]6O)[nH]c4cc3F)cc2)cc1  inhibition (Tyrosine-protein kinase Fyn (FYN, Homo sapiens, UniProt P06241); enzyme activity, inhibitor; 10 µM): 3%
COc1ccccc1-c1n[nH]c2nc(N[C@H]3CC[C@H](NS(=O)(=O)CC(C)C)CC3)ncc12  relative abundance (bead binding, competition bead pull-down, refers to: LINJ.26.0770; Leishmania donovani extract; 10 µM; baseline: vehicle): 0.73
CN(C)[C@H]1C[C@@]23CC[C@@]4(O2)C(=CC[C@]2(C)[C@@H](c5ccc6ccncc6c5)CC[C@H]24)C=C3[C@@H](O)[C@@H]1O  inhibition (Serine/threonine-protein kinase D2 (PRKD2, Homo sapiens, UniProt Q9BZL6); ATP probe labelling, inhibitor, KiNativ profiling; 0.1 µM): 3.5%
CON(C(=O)c1cn(C)nc1C(F)F)C(C)Cc1c(Cl)cc(Cl)cc1Cl (stereo not drawn)  reaction velocity (SDHD/SDHC/SDHB (Sus scrofa, UniProt A5GZW8+D0VWV4+Q007T0); enzyme activity, inhibitor, DCIP reduction; pig; 0.1 µM, together with: DCIP 5 µM): 0.00238 µM/s and 0.00279 µM/s
CCOC(=O)[C@@H]1Cc2c(cc([N+](=O)[O-])cc2[N+](=O)[O-])[C@H](O)[C@]12C(=O)Nc1ccc(Br)cc12  remaining binding (Receptor tyrosine-protein kinase erbB-2 (ERBB2, Homo sapiens, UniProt P04626); binding, competition with immobilised ligand; 0.1 µM): 47%
FC(F)(CNCc1cc(Cl)cc(Cl)c1)CNc1nc2ncccc2[nH]1  selectivity ratio (Methionine--tRNA ligase, mitochondrial (MARS2, Homo sapiens, UniProt Q96GW9); enzyme activity; baseline: human IC50 over T. brucei IC50): > 26.9
C#CCNC(=O)CN(Cc1ccc(-c2ccc(F)c(CN3CCS(=O)(=O)CC3)n2)cc1)C(=O)c1ccc(C2(C(F)(F)F)N=N2)cc1  photoaffinity enrichment (Protein disulfide-isomerase (P4HB, Cricetulus griseus, UniProt Q8R4U2); chemical proteomics; CHO cells overexpressing CB2; 10 µM, unit not given; baseline: untreated): 13 ± 1
O=C1NC2(CC2)COc2ncc(F)cc2[C@H]2COCCN2c2ccn3ncc1c3n2  serum sodium (Sprague-Dawley rat, female, serum; oral, 10 mg/kg/day, end of recovery, 4-week subacute toxicity): 144 ± 2 mmol/L
CC(C)(C)C(=O)OCOP(=O)(OCOC(=O)C(C)(C)C)C1CCCN(O)C1=O (stereo not drawn)  log LC50 (HCC 2998): -4.03 log M
Cc1sc2c(c1C)C(c1ccc(Cl)cc1)=NC(CC(=O)OC(C)(C)C)c1nnc(C)n1-2 (stereo not drawn)  remaining binding (Adenosine receptor A1 (ADORA1, Homo sapiens, UniProt P30542); ligand displacement, radioligand; 1 µM): 110%
CC(C)CC(O)(CC(C)C)c1cn(C(=O)N2CCCC2)nn1  ratio of ratios (Monoacylglycerol lipase ABHD6 (Abhd6, Mus musculus, UniProt Q8R2Y0); enzyme activity, inhibitor, refers to: Abhd6; mouse, brain; i.p., 0.8 mg/kg, 4 h, protein level; baseline: vehicle): 2.89
COc1ccc(C(=O)CCl)cc1  relative abundance (Fosb/Jund, ΔFosB bZIP domain (Mus musculus, UniProt P13346+P15066); intact mass LC-MS, refers to: JUND adduct, HCl lost; concentration not given; baseline: total JUND species): 36.3%
COc1ccccc1-c1n[nH]c2nc(NC3CCN(C(=O)Cc4ccc(F)cc4F)CC3)ncc12  relative abundance (bead binding, competition bead pull-down, refers to: LINJ.34.0080; Leishmania donovani axenic amastigote extract; 10 µM; baseline: vehicle): 1.14
O=C1NC(=O)c2c1c1cc(F)c[n+]3c1c1c2c2cc(O)ccc2[n]1[Ru-4]312([N]=C=S)[S+]3CC[S+]1CC[S+]2CC3 (stereo not drawn)  remaining activity (Abl2 (Mus musculus, UniProt Q4JIM5); enzyme activity; 100 nM, mouse enzyme, together with: 10 µM ATP; baseline: untreated): 90%
N[C@H](C(=O)N1CCCC1)C1CCN(c2nccc3c(-c4ncc(Cl)cc4Cl)cccc23)CC1  response (5-hydroxytryptamine receptor 4, isoform 5-HT4e (HTR4, Homo sapiens, UniProt Q13639); functional response, agonist; 10 µM): 1%
CC(C)CC(C(=O)N1CC2(CC1C#N)C(=O)Nc1ccccc12)N(C)C(=O)c1cc2c(F)cc(F)c(F)c2[nH]1 (stereo not drawn)  Hill slope (Caspase-14 (Homo sapiens, UniProt P31944)): -0.76
Nc1ccc(/C=C/C(=O)N2CCc3c(oc4c(-c5ccc(F)cc5)cc(-c5ccc(C(=O)N6CCC(F)(F)CC6)cn5)cc34)C2)cn1  remaining binding (TGF-beta receptor type-1 (TGFBR1, Homo sapiens, UniProt P36897); binding, competition with immobilised ligand; 1 µM): 96%
CC(C)[C@H]1NC(=O)C[C@H]2/C=C/CCSSC[C@@H](NC1=O)C(=O)N[C@H](Cc1cccc3ccccc13)C(=O)NCC(=O)O2  inhibition (Serine/threonine-protein kinase 38 (STK38, Homo sapiens, UniProt Q15208); enzyme activity, inhibitor; 10 µM): -0.4%
CCCNC(=O)[C@H]1O[C@@H]1C(=O)N[C@H](C(=O)N1CCC[C@H]1C(=O)OCC1=C2C(C)=CC(C)=[N+]2[B-](C)(C)n2c(C)cc(C)c21)[C@@H](C)CC  kinact/KI ratio (Cathepsin B (CTSB, Homo sapiens, UniProt P07858); baseline: light over dark): 760

For quick reference, copied from above:
C#CCNC(=O)CN(Cc1ccc(-c2ccc(F)c(CN3CCS(=O)(=O)CC3)n2)cc1)C(=O)c1ccc(C2(C(F)(F)F)N=N2)cc1  photoaffinity enrichment (Protein disulfide-isomerase (P4HB, Cricetulus griseus, UniProt Q8R4U2); chemical proteomics; CHO cells overexpressing CB2; 10 µM, unit not given; baseline: untreated): 13 ± 1
O=C1NC2(CC2)COc2ncc(F)cc2[C@H]2COCCN2c2ccn3ncc1c3n2  serum sodium (Sprague-Dawley rat, female, serum; oral, 10 mg/kg/day, end of recovery, 4-week subacute toxicity): 144 ± 2 mmol/L
